Measurements of several laboratories.
Each line is one published result; not all experiments were run side by side. ± marks the error that the study gave.
Cell line: HCT-116

SMILES | observed | method | sample | time | notes | IC50
CC(C)Cn1cc(-c2nc(Nc3ccc(OCCCCCCC(=O)NO)cc3)ncc2F)nn1 | cell growth or viability | SRB | – | 72 h | – | 2.14 µM
Cc1cc(C)c([N+]#[C][Pd-]([Cl])([Cl])=[C](Nc2cccc(CN[C](Nc3c(C(C)C)cccc3C(C)C)=[Au][Cl])c2)Nc2c(C)cc(C)cc2C)c(C)c1 | cell growth or viability | – | – | – | – | 7.2 µM
Cc1c(C(=O)NNC(=O)Nc2ccc(Cl)cc2)nnn1Cc1nc2ccccc2[nH]1 | – | – | – | 48 h | – | 37.7 ± 2.6 µM
Cc1cc(C)c(N=[C](NCc2cccc(N)c2)[AuH][Cl])c(C)c1 | cell growth or viability | – | – | – | – | > 100 µM
CS/C(=N\N=C(/C)c1ccc(S(=O)(=O)N2CCC(C)CC2)cc1)N1CCCCC1 | cell growth or viability | MTT | – | – | – | 38.7 µM
CSc1nc(Nc2ccc(/C(C)=N/NC(=O)c3cccc(Cl)c3)cc2)c(C#N)c(-c2ccccc2)n1 | cell growth or viability | MTT | – | 48 h | – | 10.5 µM
CC(=O)OC[C@H]1O[C@@H](Sc2nc3c4cnn(C(=O)CNc5ccc(C)cc5)c4ncn3n2)[C@H](OC(C)=O)[C@@H](OC(C)=O)[C@H]1OC(C)=O | cell growth or viability | MTT | – | 48 h | – | 0.007 µM
CC(C)c1cccc(C(C)C)c1[N+]#[C][Pt-]([Cl])([Cl])=[C](Nc1ccc(CN[C](Nc2c(C(C)C)cccc2C(C)C)=[Au][Cl])cc1)Nc1c(C(C)C)cccc1C(C)C | cell growth or viability | – | – | – | – | > 100 µM
O=C(CCc1nc2cc(Cl)ccc2[nH]c1=O)Nc1ccc([N+](=O)[O-])cc1 | cell growth or viability | MTT | – | – | – | 19.4 µM
CCC1=C(CC)C2=[N+]3C1=Cc1c(CC)c(CC)c4[n]1[Ir-3]31([Cl])([C]#[O+])[n]3c(c(CC)c(CC)c3=CC3=[N+]1C(=C4)C(CC)=C3CC)=C2 | cell growth or viability | MTT | – | 72 h | – | > 50 µM
CCN1CCC2(CC1)C/C(=N\N=C\c1ccc(O)cc1)c1ccccc1O2 | – | – | – | 48 h | – | 49.5 ± 2.1 µM
COc1cc(-c2ccc(C(=O)N/N=C/c3ccc(N(C)C)cc3)c(C)n2)cc(OC)c1OC | cell growth or viability | MTT | – | – | – | 30.2 µM
C=C1C(=O)OC2CC3=C[C@@H](C/C(C)=C/C(OC(=O)Cc4cccc5ccccc45)[C@H]12)OC3=O (stereo partly shown) | cell growth or viability | MTT | – | 24 h | – | 0.14 µM
Cc1ccc(C(C)C)cc1.[Au][S]C1=NCCS1.[Cl][Ru][Cl].c1ccc(P(CP(c2ccccc2)c2ccccc2)c2ccccc2)cc1 | cell growth or viability | trypan blue | – | 48 h | – | 6.5 µM
CC(C)(C)CC(C)(C)Nc1c(-c2ccc3c(c2)OCO3)nc2cnccn12 | cell growth or viability | MTT | – | 24 h | – | 27.5 µM
COc1ccc(-c2nc(SCCOC(=O)[C@]3(C)CCC[C@]4(C)c5ccc(C(C)C)cc5CCC34)nc(O)c2C#N)cc1 (stereo partly shown) | cell growth or viability | MTT | – | 48 h | – | 9.53 to 19.4 µM
COc1ccc(CN2C[C@H](O)[C@H](O)[C@@H]2CO)cc1 | cell growth or viability | MTS | – | 72 h | – | > 200 µM
CSc1nc(Nc2ccc(C(=O)N/N=C/c3c(Cl)cccc3Cl)cc2)c(C#N)c(-c2ccccc2)n1 | cell growth or viability | MTT | – | 48 h | – | 7.14 µM
CCCCSc1nc(N)c2c(F)c(C#N)c(F)c(Cl)c2n1 | cell growth or viability | MTT | – | 96 h | – | 16 µM
COC(=O)CCNC(=O)CNC(=O)CCn1nc(Cc2ccccc2)c2ccccc2c1=O | cell growth or viability | MTT | – | 48 h | – | 0.32 µM

SMILES | observed | method | sample | time | notes | IC50
O=C1C=C(c2coc3cc(O)cc(O)c3c2=O)C(=O)C([N+](=O)[O-])=C1O | cell growth or viability | MTT | – | 72 h | – | 57.2 µM
CC(=NNC(N)=S)c1ccc2ccccc2c1.CC(=NNC(N)=S)c1ccc2ccccc2c1.[Cl][Cu][Cl] | cytotoxicity | MTS | – | 72 h | – | ~1 µM
Cc1cc(N2CCN(C(=O)CN3CCN(c4ccccc4)CC3)CC2)n2ncnc2n1 | cell growth or viability | MTT | – | – | – | 7.03 µM
O=C(NCCNc1n[n+]([O-])c2ccccc2[n+]1[O-])C(F)(F)F | cytotoxicity | MTT | 10% FBS medium | 6 h + 18 h | hypoxia 3% O2 | 33.8 ± 13.1 µM
NC(=S)NNC(=O)c1cc2ccccc2oc1=O | cell growth or viability | SRB | – | 72 h | – | 15.2 µM
O=C(Cn1c(=O)c(Cc2ccccc2)nc2ccccc21)OCCNCCO | cell growth or viability | MTT | – | 72 h | – | 0.057 µM
CC(=O)c1ccc(NC(=O)CCc2nc3cc(Cl)ccc3[nH]c2=O)cc1 | cell growth or viability | MTT | – | – | – | 84.5 µM
C#CCN(CC(=O)O[C@H]1[C@H](C)O[C@@H](O[C@H]2[C@H](N(C)C)[C@@H](O)[C@H](O[C@H]3[C@@H](CC=O)C[C@@H](C)[C@@H](O[C@H]4CC[C@H](N(C)C)[C@@H](C)O4)/C=C/C=C/C[C@@H](C)OC(=O)C[C@@H](O)[C@@H]3OC)O[C@@H]2C)C[C@@]1(C)O)C(=O)c1ccc(C(F)(F)F)cc1 | cell growth or viability | CCK-8 | – | 72 h | – | 1.03 µM
CCOC(=O)C/C(C)=N/NC(=O)c1nc2ccccc2n(C)c1=O | cell growth or viability | MTT | – | 48 h | – | 13 µM
C/C(=N\N=c1\sc(/N=N/c2ccc([N+](=O)[O-])cc2[N+](=O)[O-])c(C)n1C)c1c(O)c2ccccc2oc1=O | cell growth or viability | LDH | – | 48 h | – | 2.7 µM
Cc1cc(C)c([N+]#[C][Pt-]([Cl])([Cl])=[C](Nc2cccc(CN[C](Nc3c(C(C)C)cccc3C(C)C)=[Au][Cl])c2)Nc2c(C)cc(C)cc2C)c(C)c1 | cell growth or viability | – | – | – | – | > 100 µM
CN1CCN(C(=O)c2cn(C34CCCC(C)(CCC5C3CC5(C)C)C4)nn2)CC1 (stereo not shown) | cell growth or viability | CCK-8 | – | 72 h | – | 22.2 µM
NS(=O)(=O)c1ccc(Nc2nccc(-c3cn(C4CCCCC4)nn3)n2)cc1 | cell growth or viability | SRB | – | 72 h | – | 4.31 µM
CO[C@@H]1[C@@H](O[C@@H]2O[C@H](C)[C@@H](O[C@H]3C[C@@](C)(O)[C@@H](OC(=O)c4ccc(C(C)(C)C)cc4)[C@H](C)O3)[C@H](N(C)C)[C@H]2O)[C@@H](CC=O)C[C@@H](C)[C@@H](O[C@H]2CC[C@H](N(C)C)[C@@H](C)O2)/C=C/C=C/C[C@@H](C)OC(=O)C[C@H]1O | cell growth or viability | CCK-8 | – | 72 h | – | 4.78 µM
CCCCCCCCSc1nc(N)c2c(F)c(C#N)c(F)c(Cl)c2n1 | cell growth or viability | MTT | – | 96 h | – | > 100 µM
Cc1nnc(NC(=O)CSc2nnc(-c3ccc4c(c3)OCCO4)o2)s1 | cell growth or viability | MTT | – | 36 h | – | 7.2 µM
O=C1c2ccccc2C2C(=O)c3ccccc3OC12 (stereo not shown) | cell growth or viability | resazurin | – | 96 h | – | 25.1 µg/mL
Cc1cc(C)c(S(=O)(=O)N(CC(=O)O)c2ccc(Nc3ccnc(N4CCCC4)n3)cc2)c(C)c1 | cell growth or viability | MTT | – | 72 h | – | 8.99 µM
O=C(NCCCCCNc1n[n+]([O-])c2ccccc2[n+]1[O-])C(F)(F)F | cytotoxicity | MTT | – | 24 h | normoxia | 65.4 ± 14.6 µM
CCCCNC(=O)O[C@H]1[C@H](C)O[C@@H](O[C@H]2[C@H](N(C)C)[C@@H](O)[C@H](O[C@H]3[C@@H](CC=O)C[C@@H](C)[C@@H](O[C@H]4CC[C@H](N(C)C)[C@@H](C)O4)/C=C/C=C/C[C@@H](C)OC(=O)C[C@@H](O)[C@@H]3OC)O[C@@H]2C)C[C@@]1(C)O | cell growth or viability | CCK-8 | – | 72 h | – | > 50 µM

Repeated from above:
SMILES | observed | method | sample | time | notes | IC50
CC(=NNC(N)=S)c1ccc2ccccc2c1.CC(=NNC(N)=S)c1ccc2ccccc2c1.[Cl][Cu][Cl] | cytotoxicity | MTS | – | 72 h | – | ~1 µM
Cc1cc(N2CCN(C(=O)CN3CCN(c4ccccc4)CC3)CC2)n2ncnc2n1 | cell growth or viability | MTT | – | – | – | 7.03 µM
O=C(NCCNc1n[n+]([O-])c2ccccc2[n+]1[O-])C(F)(F)F | cytotoxicity | MTT | 10% FBS medium | 6 h + 18 h | hypoxia 3% O2 | 33.8 ± 13.1 µM
NC(=S)NNC(=O)c1cc2ccccc2oc1=O | cell growth or viability | SRB | – | 72 h | – | 15.2 µM
O=C(Cn1c(=O)c(Cc2ccccc2)nc2ccccc21)OCCNCCO | cell growth or viability | MTT | – | 72 h | – | 0.057 µM
CC(=O)c1ccc(NC(=O)CCc2nc3cc(Cl)ccc3[nH]c2=O)cc1 | cell growth or viability | MTT | – | – | – | 84.5 µM
